Measurements collected from several papers.
T1: NEMO 50-113 T50E/L55R/R75V/C76S/E78R/C95A/R106E/E110V; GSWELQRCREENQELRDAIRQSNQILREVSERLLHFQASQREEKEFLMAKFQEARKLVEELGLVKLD
B1: POL30 1-258 (Saccharomyces cerevisiae, UniProt P15873); chain MLEAKFEEASLFKRIIDGFKDCVQLVNFQCKEDGIIAQAVDDSRVLLVSLEIGVEAFQEYRCDHPVTLGMDLTSLSKILRCGNNTDTLTLIADNTPDSIILLFEDTKKDRIAEYSLKLMDIDADFLKIEELQYDSTLSLPSSEFSKIVRDLSQLSDSINIMITKETIKFVADGDIGSGSVIIKPFVDMEHPETSIKLEMDQPVDLTFGAKYLLDIIKGSSLSDRVGIRLSSEAPALFQFDLKSGFLQFFLAPKFNDEE
B2: CENPI 57-281 (Homo sapiens, UniProt Q92674); sequence looked up; chain ADDQAEEDALQMAVGYFEKGPIKASQNKDKTLEKHLKTVENVAWKNGLASEEIDILLNIALSGKFGNAVNTRILKCMIPATVISEDSVVKAVSWLCVGKCSGSTKVLFYRWLVAMFDFIDRKEQINLLYGFFFASLQDDALCPYVCHLLYLLTKKENVKPFRVRKLLDLQAKMGMQPHLQALLSLYKFFAPALISVSLPVRKKIYFKNSENLWKTALLAVKQRNR
B3: NOTCH2 221-530 (Homo sapiens, UniProt Q04721); sequence looked up; chain LYVPCAPSPCVNGGTCRQTGDFTFECNCLPGFEGSTCERNIDDCPNHRCQNGGVCVDGVNTYNCRCPPQWTGQFCTEDVDECLLQPNACQNGGTCANRNGGYGCVCVNGWSGDDCSENIDDCAFASCTPGSTCIDRVASFSCMCPEGKAGLLCHLDDACISNPCHKGALCDTNPLNGQYICTCPQGYKGADCTEDVDECAMANSNPCEHAGKCVNTDGAFHCECLKGYAGPRCEMDINECHSDPCQNDATCLDKIGGFTCLCMPGFKGVHCELEINECQSNPCVNNGQCVDKVNRFQCLCPPGFTGPVCQ
B4: TFC8 1-588 (Saccharomyces cerevisiae, UniProt Q12308); chain MKLLKDLLVDRKEFEDWKNNLTWARDGTLYLTTFPDISIGQPKYAKDINCNSKNLFHVKEFPLEFENKLDFELAQQNGLLNSQPVCYPRVCKPSPIDDWMAVLSNNGNVSVFKDNKMLTNLDSKGNLSSRTYHCFEWNPIESSIVVGNEDGELQFFSIRKNSENTPEFYFESSIRLSDAGSKDWVTHIVWYEDVLVAALSNNSVFSMTVSASSHQPVSRMIQNASRRKITDLKIVDYKVVLTCPGYVHKIDLKNYSISSLKTGSLENFHIIPLNHEKESTILLMSNKTSYKVLLEDELHVTADNIIAPYLEKKFKKWSTIWNEFNNYETTLVIHGISLSPDGYSIAIVYDMERVAFKYKIASEQSFNIMFAPLYHTWTISERAVGLAWYQTYQIYNQSLPKLPENFSMNKKLLNGNYPISLDFQSYLNALMKSEEMRIIMFLNMTIDKPSILSFLEALYEYAINKKSELTNSFDLACVLSIAAILKREAPIYNGTLLMKNSFLEETFNLESFTADPETVTSTTNNTWKRCGVTLLPILTTHVKICPVSKQRVIDIKRDDLNDYGWFTRGLLERFNEISVYCGTTLEVM
B5: ATP synthase subunit gamma, human; sequence looked up; chain ATLKDITRRLKSIKNIQKITKSMKMVAAAKYARAERELKPARIYGLGSLALYEKADIKGPEDKKKHLLIGVSSDRGLCGAIHSSIAKQMKSEVATLTAAGKEVMLVGIGDKIRGILYRTHSDQFLVAFKEVGRKPPTFGDASVIALELLNSGYEFDEGSIIFNKFRSVISYKTEEKPIFSLNTVASADSMSIYDDIDADVLQNYQEYNLANIIYYSLKESTTSEQSARMTAMDNASKNASEMIDKLTLTFNRTRQAVITKELIEIISGAAALD
B6: CRP mature R188A (Homo sapiens); chain QTDMSRKAFVFPKESDTSYVSLKAPLTKPLKAFTVCLHFYTELSSTRGYSIFSYATKRQDNEILIFWSKDIGYSFTVGGSEILFEVPEVTVAPVHICTSWESASGIVEFWVDGKPRVRKSLKKGYTVGAEASIILGQEQDSFGGNFEGSQSLVGDIGNVNMWDFVLSPDEINTIYLGGPFSPNVLNWAALKYEVQGEVFTKPQLWP
B7: DOT1L 1-420 (Homo sapiens, UniProt Q8TEK3); chain MGEKLELRLKSPVGAEPAVYPWPLPVYDKHHDAAHEIIETIRWVCEEIPDLKLAMENYVLIDYDTKSFESMQRLCDKYNRAIDSIHQLWKGTTQPMKLNTRPSTGLLRHILQQVYNHSVTDPEKLNNYEPFSPEVYGETSFDLVAQMIDEIKMTDDDLFVDLGSGVGQVVLQVAAATNCKHHYGVEKADIPAKYAETMDREFRKWMKWYGKKHAEYTLERGDFLSEEWRERIANTSVIFVNNFAFGPEVDHQLKERFANMKEGGRIVSSKPFAPLNFRINSRNLSDIGTIMRVVELSPLKGSVSWTGKPVSYYLHTIDRTILENYFSSLKNPKLREEQEAARRRQQRESKSNAATPTKGPEGKVAGPADAPMDSGAEEEKAGAATVKKPSPSKARKKKLNKKGRKMAGRKRGRPKKMNTA
B8: human DHRS2; sequence looked up; chain SSTGIDRKGVLANRVAVVTGSTSGIGFAIARRLARDGAHVVISSRKQQNVDRAMAKLQGEGLSVAGIVCHVGKAEDREQLVAKALEHCGGVDFLVCSAGVNPLVGSTLGTSEQIWDKILSVNVKSPALLLSQLLPYMENRRGAVILVSSIAAYNPVVALGVYNVSKTALLGLTRTLALELAPKDIRVNCVVPGIIKTDFSKVFHGNESLWKNFKEHHQLQRIGESEDCAGIVSFLCSPDASYVNGENIAVAGYSTRL
B9: slyD (Escherichia coli, UniProt P0A9K9); sequence looked up; chain MKVAKDLVVSLAYQVRTEDGVLVDESPVSAPLDYLHGHGSLISGLETALEGHEVGDKFDVAVGANDAYGQYDENLVQRVPKDVFMGVDELQVGMRFLAETDQGPVPVEITAVEDDHVVVDGNHMLAGQNLKFNVEVVAIREATEEELAHGHVHGAHDHHHDHDHDGCCGGHGHDHGHEHGGEGCCGGKGNGGCGCH
B10: CCDC32 L78A/L81A/K83A/K84A (Mus musculus, UniProt Q8BS39); chain MKMFESLDSSATKSGRDLWAEICSCLPSPAQEDVSDNAFSDSFMDSHPAGESHTAAADSAVQPAGKPWAPLHDSEVYAASAEAALRRIKGLNEEVTSKDMLRTLAQAKKECWDRFLQEKLASEFFVDGLDSDERTLEHFKRWLQPDKVAISTEEVQFLIPPESQAEKPEAGDKPAAAEQ
B11: TTC7B (Homo sapiens, UniProt Q86TV6); chain MATKKAGSRLETEIERCRSECQWERIPELVKQLSAKLIANDDMAELLLGESKLEQYLKEHPLRQGASPRGPKPQLTEVRKHLTAALDRGNLKSEFLQESNLIMAKLNYVEGDYKEALNIYARVGLDDLPLTAVPPYRLRVIAEAYATKGLCLEKLPISSSTSNLHVDREQDVITCYEKAGDIALLYLQEIERVILSNIQNRSPKPGPAPHDQELGFFLETGLQRAHVLYFKNGNLTRGVGRFRELLRAVETRTTQNLRMTIARQLAEILLRGMCEQSYWNPLEDPPCQSPLDDPLRKGANTKTYTLTRRARVYSGENIFCPQENTEEALLLLLISESMANRDAVLSRIPEHKSDRLISLQSASVVYDLLTIALGRRGQYEMLSECLERAMKFAFEEFHLWYQFALSLMAAGKSARAVKVLKECIRLKPDDATIPLLAAKLCMGSLHWLEEAEKFAKTVVDVGEKTSEFKAKGYLALGLTYSLQATDASLRGMQEVLQRKALLAFQRAHSLSPTDHQAAFYLALQLAISRQIPEALGYVRQALQLQGDDANSLHLLALLLSAQKHYHDALNIIDMALSEYPENFILLFSKVKLQSLCRGPDEALLTCKHMLQIWKSCYNLTNPSDSGRGSSLLDRTIADRRQLNTITLPDFSDPETGSVHATSVAASRVEQALSEVASSLQSSAPKQGPLHPWMTLAQIWLHAAEVYIGIGKPAEATACTQEAANLFPMSHNVLYMRGQIAELRGSMDEARRWYEEALAISPTHVKSMQRLALILHQLGRYSLAEKILRDAVQVNSTAHEVWNGLGEVLQAQGNDAAATECFLTALELEASSPAVPFTIIPRVL
B12: KAT8 172-235 (Homo sapiens, UniProt Q9H7Z6); sequence looked up; chain AITKVKYVDKIHIGNYEIDAWYFSPFPEDYGKQPKLWLCEYCLKYMKYEKSYRFHLGQCQWRQP
Sequence of UniProt P42356 (whole entry, looked up): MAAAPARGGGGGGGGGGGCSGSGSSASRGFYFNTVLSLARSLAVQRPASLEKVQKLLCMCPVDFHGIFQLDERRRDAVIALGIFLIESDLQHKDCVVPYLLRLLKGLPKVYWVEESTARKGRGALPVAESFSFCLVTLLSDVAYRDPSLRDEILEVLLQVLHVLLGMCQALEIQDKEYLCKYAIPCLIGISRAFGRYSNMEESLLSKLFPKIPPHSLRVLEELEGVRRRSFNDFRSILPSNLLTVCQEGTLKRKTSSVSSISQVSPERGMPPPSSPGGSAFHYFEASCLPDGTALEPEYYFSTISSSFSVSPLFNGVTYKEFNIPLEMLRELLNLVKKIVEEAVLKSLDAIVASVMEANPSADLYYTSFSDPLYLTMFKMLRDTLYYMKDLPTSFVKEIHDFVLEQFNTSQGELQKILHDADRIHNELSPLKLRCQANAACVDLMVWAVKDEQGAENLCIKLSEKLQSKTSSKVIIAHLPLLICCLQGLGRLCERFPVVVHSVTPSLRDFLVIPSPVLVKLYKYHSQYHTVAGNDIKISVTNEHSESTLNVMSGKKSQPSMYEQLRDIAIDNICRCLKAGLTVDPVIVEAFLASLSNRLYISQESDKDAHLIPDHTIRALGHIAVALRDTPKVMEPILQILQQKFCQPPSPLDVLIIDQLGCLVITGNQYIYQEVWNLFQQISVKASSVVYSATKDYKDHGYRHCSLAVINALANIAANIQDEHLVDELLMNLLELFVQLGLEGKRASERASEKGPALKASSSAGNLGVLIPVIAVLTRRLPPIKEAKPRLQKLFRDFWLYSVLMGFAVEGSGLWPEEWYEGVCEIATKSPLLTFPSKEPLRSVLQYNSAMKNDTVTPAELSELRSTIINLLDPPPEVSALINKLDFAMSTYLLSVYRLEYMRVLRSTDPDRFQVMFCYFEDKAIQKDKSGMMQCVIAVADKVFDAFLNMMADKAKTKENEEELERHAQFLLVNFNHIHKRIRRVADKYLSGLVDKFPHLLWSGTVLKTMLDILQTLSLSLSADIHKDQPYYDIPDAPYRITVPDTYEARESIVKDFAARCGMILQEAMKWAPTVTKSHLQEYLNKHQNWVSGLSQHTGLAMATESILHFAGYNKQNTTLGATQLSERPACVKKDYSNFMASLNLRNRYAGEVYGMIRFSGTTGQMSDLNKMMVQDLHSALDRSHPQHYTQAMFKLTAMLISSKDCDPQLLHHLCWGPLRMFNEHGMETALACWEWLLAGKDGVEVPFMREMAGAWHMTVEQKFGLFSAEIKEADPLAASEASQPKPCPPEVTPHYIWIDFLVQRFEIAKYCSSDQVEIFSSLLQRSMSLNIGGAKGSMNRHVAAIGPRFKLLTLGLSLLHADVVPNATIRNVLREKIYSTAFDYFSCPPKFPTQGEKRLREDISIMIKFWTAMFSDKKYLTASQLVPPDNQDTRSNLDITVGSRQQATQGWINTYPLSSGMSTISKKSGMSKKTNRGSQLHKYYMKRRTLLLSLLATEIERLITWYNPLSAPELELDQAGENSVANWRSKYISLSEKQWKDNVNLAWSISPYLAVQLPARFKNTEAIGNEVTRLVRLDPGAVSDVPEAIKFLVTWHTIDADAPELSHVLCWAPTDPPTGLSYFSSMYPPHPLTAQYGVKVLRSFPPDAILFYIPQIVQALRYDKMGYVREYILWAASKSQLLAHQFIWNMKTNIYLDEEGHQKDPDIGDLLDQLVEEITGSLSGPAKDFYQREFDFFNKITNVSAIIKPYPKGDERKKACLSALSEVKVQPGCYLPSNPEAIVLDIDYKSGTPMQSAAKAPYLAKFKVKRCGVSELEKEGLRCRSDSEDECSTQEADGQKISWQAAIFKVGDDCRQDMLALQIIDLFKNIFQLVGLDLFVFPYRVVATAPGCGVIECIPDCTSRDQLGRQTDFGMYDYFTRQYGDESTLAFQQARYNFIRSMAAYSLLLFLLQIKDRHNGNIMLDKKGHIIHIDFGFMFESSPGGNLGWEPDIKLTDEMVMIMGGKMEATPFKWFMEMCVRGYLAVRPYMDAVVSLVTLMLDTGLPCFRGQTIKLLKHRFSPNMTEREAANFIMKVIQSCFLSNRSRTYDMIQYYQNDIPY
Sequence of UniProt O95251 (whole entry, looked up): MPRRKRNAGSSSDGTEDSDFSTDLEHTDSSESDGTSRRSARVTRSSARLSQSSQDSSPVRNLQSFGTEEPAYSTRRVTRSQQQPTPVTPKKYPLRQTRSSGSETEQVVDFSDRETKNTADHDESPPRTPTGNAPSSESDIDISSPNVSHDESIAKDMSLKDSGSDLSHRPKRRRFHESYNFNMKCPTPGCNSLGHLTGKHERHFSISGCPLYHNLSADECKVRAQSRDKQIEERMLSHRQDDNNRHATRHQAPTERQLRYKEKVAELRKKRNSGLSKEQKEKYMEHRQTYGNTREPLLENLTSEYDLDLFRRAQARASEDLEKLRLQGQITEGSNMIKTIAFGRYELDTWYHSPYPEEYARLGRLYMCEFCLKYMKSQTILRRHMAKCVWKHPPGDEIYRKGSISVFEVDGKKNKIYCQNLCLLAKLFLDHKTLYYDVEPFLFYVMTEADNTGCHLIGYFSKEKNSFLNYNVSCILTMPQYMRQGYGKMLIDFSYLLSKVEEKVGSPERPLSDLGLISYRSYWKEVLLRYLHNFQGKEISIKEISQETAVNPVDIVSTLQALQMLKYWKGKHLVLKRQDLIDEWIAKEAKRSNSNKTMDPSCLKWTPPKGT
Sequence of UniProt P34111 (whole entry, looked up): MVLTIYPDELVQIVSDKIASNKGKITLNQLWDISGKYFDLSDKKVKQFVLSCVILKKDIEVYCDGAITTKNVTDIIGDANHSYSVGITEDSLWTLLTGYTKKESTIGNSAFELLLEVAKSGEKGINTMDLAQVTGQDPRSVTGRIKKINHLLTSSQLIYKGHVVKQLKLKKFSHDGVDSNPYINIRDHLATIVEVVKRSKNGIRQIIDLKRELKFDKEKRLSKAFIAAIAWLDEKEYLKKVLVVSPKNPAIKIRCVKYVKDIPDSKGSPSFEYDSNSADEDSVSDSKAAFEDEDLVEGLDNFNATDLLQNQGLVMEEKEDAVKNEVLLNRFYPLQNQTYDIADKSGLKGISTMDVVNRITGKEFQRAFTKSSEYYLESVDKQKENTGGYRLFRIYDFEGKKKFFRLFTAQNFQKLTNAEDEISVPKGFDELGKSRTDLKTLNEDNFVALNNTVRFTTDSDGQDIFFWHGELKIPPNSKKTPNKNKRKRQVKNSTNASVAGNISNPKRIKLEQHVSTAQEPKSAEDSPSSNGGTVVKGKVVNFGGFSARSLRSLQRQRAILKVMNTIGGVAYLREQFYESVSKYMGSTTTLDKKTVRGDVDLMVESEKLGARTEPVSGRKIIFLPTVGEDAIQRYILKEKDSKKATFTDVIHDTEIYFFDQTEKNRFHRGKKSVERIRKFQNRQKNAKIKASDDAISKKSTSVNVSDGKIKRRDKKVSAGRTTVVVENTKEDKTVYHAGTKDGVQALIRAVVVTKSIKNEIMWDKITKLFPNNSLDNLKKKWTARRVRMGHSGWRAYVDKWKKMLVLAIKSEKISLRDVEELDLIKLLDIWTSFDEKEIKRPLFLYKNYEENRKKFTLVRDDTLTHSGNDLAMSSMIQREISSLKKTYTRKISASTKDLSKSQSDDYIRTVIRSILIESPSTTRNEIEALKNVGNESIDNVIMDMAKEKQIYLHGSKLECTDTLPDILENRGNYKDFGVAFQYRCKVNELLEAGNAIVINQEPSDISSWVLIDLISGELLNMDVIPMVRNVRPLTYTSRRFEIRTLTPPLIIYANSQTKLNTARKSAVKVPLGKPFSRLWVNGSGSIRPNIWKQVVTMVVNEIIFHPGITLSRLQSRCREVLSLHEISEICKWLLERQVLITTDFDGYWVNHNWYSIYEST
Sequence of UniProt Q96MT3 (whole entry, looked up): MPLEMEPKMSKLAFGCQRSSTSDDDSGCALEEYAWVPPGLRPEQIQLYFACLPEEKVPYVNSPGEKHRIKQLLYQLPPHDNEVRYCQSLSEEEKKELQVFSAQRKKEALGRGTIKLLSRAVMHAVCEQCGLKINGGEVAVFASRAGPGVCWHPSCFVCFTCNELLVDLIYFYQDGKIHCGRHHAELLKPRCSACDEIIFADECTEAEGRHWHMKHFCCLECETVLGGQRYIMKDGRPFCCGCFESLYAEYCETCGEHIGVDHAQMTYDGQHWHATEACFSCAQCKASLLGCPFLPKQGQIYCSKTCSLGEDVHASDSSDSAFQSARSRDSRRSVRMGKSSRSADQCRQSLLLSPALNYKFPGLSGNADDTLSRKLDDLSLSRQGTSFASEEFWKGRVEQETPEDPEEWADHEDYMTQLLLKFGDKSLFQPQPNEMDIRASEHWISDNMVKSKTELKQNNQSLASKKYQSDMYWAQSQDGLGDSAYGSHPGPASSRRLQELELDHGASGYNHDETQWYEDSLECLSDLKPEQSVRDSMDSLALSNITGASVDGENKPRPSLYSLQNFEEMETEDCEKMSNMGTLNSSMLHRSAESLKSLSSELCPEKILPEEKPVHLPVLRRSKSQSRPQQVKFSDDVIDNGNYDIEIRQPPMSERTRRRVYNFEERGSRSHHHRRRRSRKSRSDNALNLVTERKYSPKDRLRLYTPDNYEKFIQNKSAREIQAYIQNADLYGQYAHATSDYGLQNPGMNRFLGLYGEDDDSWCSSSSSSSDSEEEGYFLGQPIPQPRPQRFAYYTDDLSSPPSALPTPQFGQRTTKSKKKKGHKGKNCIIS
Sequence of UniProt P38629 (whole entry, looked up): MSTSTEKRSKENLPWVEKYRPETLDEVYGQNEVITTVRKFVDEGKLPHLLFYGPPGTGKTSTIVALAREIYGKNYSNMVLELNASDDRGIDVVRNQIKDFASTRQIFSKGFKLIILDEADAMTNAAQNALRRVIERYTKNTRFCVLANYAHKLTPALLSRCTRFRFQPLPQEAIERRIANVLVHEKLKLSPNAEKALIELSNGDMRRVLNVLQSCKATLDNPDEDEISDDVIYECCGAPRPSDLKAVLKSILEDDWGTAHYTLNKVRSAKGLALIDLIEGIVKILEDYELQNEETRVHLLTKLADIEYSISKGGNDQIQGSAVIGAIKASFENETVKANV

| Molecule | target or system | test | system | setting | how to read | measurement | result |
| --- | --- | --- | --- | --- | --- | --- | --- |
| VANGL1 (Homo sapiens, UniProt Q8TAA9-1) | PRICKLE1 (Homo sapiens, UniProt Q96MT3) | pull-down | Expi293F | – | – | binding | binds |
| B1 (POL30 1-258) | RFC3 (Saccharomyces cerevisiae, UniProt P38629) | cryo-EM | – | – | – | binding | binds |
| APPBP2 fragment (Homo sapiens) (sequence not shown) | ELOB fragment (Homo sapiens) | cryo-EM | – | – | – | binding | binds |
| B2 (CENPI 57-281) | CENP-H/CENP-K (Homo sapiens) | SEC | – | – | – | binding | binds |
| B3 (NOTCH2 221-530) | DLL4 27-400 G28S/F107L/I143F/H194Y/L206P (Homo sapiens, UniProt Q9NR61) | SPR | – | – | – | binding | binds |
| B4 (TFC8 1-588) | TFC3 1-1160 (Saccharomyces cerevisiae, UniProt P34111) | cryo-EM | – | – | – | binding | binds |
| B5 | PP6C (human) | co-immunoprecipitation, IP-MS | CYB5R4 knockout cells | concentration not given | relative to: CYB5R4 knockout over parental | log2 fold change | -0.12 |
| colistin | Enterobacter cloacae | broth microdilution | clinical isolate RKI-No_215/15 | – | – | MIC | ≤ 0.5 mg/L |
| KESALRKQDLLLIFDPLFR (TACC3 to 568 550-568 S558D/Y560L/K562I/L567F (Homo sapiens, UniProt Q9Y6A5); sequence looked up) | CLTC 358-574 (Homo sapiens, UniProt Q00610) | peptide array | peptide | – | – | binding | binds |
| B6 (CRP mature R188A) | C1q (UniProt P02745) | cryo-EM structure | – | added: CaCl2 | – | binding | binds |
| B7 (DOT1L 1-420) | H3-3A fragment (Xenopus laevis) | cryo-EM | – | added: SAH | – | binding | binds |
| B8 (human DHRS2) | PP6C (human) | co-immunoprecipitation, IP-MS | CYB5R4 knockout cells | concentration not given | relative to: CYB5R4 knockout over parental | log2 fold change | -5.37 |
| B9 (slyD) | hypB monomeric variant 2-290 L242A/L246A (Escherichia coli, UniProt P0AAN3) | SEC | – | – | – | binding | binds |
| B10 (CCDC32 L78A/L81A/K83A/K84A) | AP-2 core (Mus musculus) | pull-down | liposomes | – | – | binding | binds |
| PARRSEELVAEAHNLCTLLENAIQDTVREQDQSFTALDWSWLQTE (IKBKB 701-745 K703R/K704R (Homo sapiens, UniProt O14920); sequence looked up) | T1, NEMO 50-113 T50E/L55R/R75V/C76S/E78R/C95A/R106E/E110V | NMR titration | peptide | pH 7.4, 308 K | – | binding | binds |
| DQLYQPLKDREDDQYSHLQG (CD3G 157-176; phosphotyrosine) | SYK (Homo sapiens, UniProt P43405) | FIDA | peptide | – | – | binding | binds |
| ARTKQTARKSTGGKAY (histone H3 residues 1-15; K9me3) | ATRX 1-321 H189N (Homo sapiens, UniProt P46100) | ITC | peptide | 25 °C | – | binding | binds |
| B11 (TTC7B) | PI4KA (Homo sapiens, UniProt P42356) | cryo-EM | – | – | – | binding | binds |
| B12 (KAT8 172-235) | KAT7 (Homo sapiens, UniProt O95251) | pull-down | – | – | – | binding | binds |
| KLLITIHDRKEFAKFEEERARAKWDTANNPLYKEATSTFTNITYRGT (ITGB3 742-788 (Homo sapiens, UniProt P05106); sequence looked up) | VPS33B (Homo sapiens, UniProt Q9H267) | pull-down | – | – | – | binding | binds |

For quick reference, copied from above:
| Molecule | target or system | test | system | setting | how to read | measurement | result |
| --- | --- | --- | --- | --- | --- | --- | --- |
| B1 (POL30 1-258) | RFC3 (Saccharomyces cerevisiae, UniProt P38629) | cryo-EM | – | – | – | binding | binds |
| B2 (CENPI 57-281) | CENP-H/CENP-K (Homo sapiens) | SEC | – | – | – | binding | binds |
